Measured values of several laboratories.
Numbered parts are unrelated; each lists some results of a single study. Several values in a cell are separate wells, animals, samples, runs or records.
Sequence of UniProt Q13873 (whole entry, looked up): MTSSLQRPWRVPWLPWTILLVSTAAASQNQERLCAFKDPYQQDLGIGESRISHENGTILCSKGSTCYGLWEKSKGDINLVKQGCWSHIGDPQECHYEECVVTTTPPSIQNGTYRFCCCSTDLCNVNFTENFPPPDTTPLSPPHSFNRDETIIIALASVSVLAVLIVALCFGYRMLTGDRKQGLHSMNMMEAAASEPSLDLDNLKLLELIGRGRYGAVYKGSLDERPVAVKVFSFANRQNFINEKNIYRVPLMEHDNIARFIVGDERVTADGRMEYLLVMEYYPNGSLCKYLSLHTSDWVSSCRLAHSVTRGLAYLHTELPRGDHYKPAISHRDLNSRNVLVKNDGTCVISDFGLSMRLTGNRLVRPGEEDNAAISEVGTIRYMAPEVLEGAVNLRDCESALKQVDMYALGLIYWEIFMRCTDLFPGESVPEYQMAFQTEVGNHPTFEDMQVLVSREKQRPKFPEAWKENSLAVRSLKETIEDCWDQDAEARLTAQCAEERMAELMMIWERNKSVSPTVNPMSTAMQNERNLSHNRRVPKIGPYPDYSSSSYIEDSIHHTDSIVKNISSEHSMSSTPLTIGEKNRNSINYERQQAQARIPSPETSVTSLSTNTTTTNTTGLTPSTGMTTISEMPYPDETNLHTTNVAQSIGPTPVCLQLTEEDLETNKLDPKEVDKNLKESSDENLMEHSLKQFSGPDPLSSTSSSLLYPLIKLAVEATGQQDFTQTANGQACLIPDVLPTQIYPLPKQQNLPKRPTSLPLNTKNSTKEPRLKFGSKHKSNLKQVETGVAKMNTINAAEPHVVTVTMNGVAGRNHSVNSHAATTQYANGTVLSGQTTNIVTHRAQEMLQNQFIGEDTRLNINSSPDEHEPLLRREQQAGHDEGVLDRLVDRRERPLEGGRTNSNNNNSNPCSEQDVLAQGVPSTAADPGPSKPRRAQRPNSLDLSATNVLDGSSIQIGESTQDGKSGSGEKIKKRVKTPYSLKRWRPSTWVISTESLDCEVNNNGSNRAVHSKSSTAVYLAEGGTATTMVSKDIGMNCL
Sequence of UniProt Q15831 (whole entry, looked up): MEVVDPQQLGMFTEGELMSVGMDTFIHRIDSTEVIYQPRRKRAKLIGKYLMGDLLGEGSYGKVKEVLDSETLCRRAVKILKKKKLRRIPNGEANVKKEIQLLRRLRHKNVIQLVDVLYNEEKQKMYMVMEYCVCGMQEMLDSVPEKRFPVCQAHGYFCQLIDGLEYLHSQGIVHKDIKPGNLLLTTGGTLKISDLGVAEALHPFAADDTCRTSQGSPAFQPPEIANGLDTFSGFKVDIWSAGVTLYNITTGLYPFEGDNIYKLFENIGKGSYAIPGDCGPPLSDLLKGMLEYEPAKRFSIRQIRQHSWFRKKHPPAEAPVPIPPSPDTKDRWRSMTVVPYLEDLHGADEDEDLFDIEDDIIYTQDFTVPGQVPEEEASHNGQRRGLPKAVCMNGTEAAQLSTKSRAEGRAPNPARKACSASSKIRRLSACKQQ
Sequence of UniProt P42336 (whole entry, unmodified, looked up): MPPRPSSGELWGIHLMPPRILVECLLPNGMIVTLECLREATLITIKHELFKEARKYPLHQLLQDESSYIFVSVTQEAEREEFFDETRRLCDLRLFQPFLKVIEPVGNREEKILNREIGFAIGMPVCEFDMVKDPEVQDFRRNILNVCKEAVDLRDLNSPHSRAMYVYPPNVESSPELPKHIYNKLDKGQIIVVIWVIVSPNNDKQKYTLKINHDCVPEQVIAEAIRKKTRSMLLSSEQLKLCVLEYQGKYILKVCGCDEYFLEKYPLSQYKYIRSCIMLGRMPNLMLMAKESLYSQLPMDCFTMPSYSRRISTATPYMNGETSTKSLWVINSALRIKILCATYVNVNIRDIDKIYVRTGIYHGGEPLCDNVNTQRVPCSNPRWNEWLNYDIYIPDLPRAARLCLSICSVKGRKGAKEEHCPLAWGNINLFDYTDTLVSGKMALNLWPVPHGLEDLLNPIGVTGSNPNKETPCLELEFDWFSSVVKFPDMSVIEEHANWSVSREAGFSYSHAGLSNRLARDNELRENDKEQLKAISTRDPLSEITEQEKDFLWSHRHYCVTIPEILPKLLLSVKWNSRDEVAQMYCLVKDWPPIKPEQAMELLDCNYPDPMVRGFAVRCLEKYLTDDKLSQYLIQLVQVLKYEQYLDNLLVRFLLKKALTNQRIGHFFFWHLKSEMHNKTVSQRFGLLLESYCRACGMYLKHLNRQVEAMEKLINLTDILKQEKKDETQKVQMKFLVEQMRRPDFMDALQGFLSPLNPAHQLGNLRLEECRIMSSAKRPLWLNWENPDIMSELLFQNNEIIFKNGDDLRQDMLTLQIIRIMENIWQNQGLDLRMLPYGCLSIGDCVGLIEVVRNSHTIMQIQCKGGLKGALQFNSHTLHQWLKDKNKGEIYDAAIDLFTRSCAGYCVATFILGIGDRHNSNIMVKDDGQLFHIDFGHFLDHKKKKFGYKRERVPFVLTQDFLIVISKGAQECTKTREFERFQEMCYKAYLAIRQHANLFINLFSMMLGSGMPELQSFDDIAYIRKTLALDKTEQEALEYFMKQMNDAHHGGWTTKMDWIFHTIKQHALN
Sequence of UniProt P53671 (whole entry, looked up): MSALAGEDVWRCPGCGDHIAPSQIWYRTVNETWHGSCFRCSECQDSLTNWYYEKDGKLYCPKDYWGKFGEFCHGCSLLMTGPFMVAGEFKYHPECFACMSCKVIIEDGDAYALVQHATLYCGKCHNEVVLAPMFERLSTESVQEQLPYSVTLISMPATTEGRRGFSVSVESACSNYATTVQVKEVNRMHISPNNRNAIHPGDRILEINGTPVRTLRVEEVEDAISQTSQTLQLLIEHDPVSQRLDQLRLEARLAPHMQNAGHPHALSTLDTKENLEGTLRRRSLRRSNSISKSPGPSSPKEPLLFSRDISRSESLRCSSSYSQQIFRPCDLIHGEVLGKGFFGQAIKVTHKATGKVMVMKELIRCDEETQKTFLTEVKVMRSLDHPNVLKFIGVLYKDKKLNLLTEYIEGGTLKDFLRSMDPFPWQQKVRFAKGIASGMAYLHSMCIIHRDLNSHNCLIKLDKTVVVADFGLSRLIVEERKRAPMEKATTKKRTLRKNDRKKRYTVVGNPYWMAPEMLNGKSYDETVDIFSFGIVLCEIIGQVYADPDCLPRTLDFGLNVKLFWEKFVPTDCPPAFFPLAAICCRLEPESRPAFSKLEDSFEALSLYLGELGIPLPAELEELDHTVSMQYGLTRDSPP

Study 1 — read-out: cell-free assay; method: competition with immobilised ligand; concentration: 1 µM; measurement: remaining binding
SMILES: CN([C@@H]1CCc2c(CC(=O)O)c3ccccc3n2C1)S(=O)(=O)c1ccc(F)cc1
target = LIM domain kinase 2 (LIMK2, Homo sapiens, UniProt P53671); value = 100%
target = STK11 (Homo sapiens, UniProt Q15831); value = 56%
target = BMPR2 (Homo sapiens, UniProt Q13873); value = 100%
target = SRC (Homo sapiens, UniProt P12931); value = 100%
target = PIK3CA (Homo sapiens, UniProt P42336, E542K); value = 86%

Study 2 — cell line: A-375; concentration: 100 µM; time: 36 h; measurement: viability
SMILES = O=C(O)CCn1c2c(c3ccccc31)C[C@H](NS(=O)(=O)c1ccc(F)cc1)CC2; value = 103%
SMILES = CC[C@H](Nc1ncnc2[nH]cnc12)c1nc2cccc(F)c2c(=O)n1-c1ccccc1; value = 92.4%
SMILES = C[C@H](CCC(=O)O)[C@H]1CC[C@H]2[C@@H]3CC[C@@H]4C[C@H](O)CC[C@]4(C)[C@H]3C[C@H](O)[C@]12C; value = 102%
SMILES = c1ccc(CN(CC2=NCCN2)c2ccccc2)cc1; value = 80.7%
SMILES = C[C@@H]1O[C@@H](OC[C@H]2O[C@@H](Oc3c(-c4ccc(O)c(O)c4)oc4cc(O)cc(O)c4c3=O)[C@H](O)[C@@H](O)[C@@H]2O)[C@H](O)[C@H](O)[C@H]1O; value = 105%

Study 3 — read-out: enzyme activity; action: inhibitor; concentration: 0.5 µM; relative to: control; measurement: remaining activity
Target: Ribosomal protein S6 kinase beta-2 (RPS6KB2, Homo sapiens, UniProt Q9UBS0)
Sequence of UniProt Q9UBS0 (whole entry, looked up): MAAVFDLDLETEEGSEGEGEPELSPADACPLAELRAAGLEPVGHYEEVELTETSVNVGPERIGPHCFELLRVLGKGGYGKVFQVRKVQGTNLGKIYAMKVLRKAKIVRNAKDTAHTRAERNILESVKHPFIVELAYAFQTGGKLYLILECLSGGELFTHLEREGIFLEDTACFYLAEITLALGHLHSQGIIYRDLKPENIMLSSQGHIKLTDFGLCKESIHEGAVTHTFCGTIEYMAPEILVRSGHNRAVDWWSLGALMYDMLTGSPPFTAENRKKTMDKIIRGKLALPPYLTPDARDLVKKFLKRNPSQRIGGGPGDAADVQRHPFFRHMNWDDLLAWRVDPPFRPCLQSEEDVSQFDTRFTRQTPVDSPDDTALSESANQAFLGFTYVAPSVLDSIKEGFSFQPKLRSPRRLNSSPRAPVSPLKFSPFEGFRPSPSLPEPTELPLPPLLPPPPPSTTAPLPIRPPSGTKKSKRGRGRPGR
Structure (SMILES) = O=C1NC(=O)C(c2cn(CCCn3ccnc3)c3ccccc23)=C1Nc1ccccc1; value = 86.1%
Structure (SMILES) = COc1cc2nccc(Oc3ccc(NC(=S)NC(=O)c4ccccc4C)cc3)c2cc1OC; value = 97.3%
Structure (SMILES) = O=C(Nc1cccc(Nc2cc(Nc3cccc(C(F)(F)F)c3)ncn2)c1)C1CC1; value = 103%
Structure (SMILES) = C#Cc1cccc(Nc2ncnc3cc(OCCOC)c(OCCOC)cc23)c1; value = 103%
Structure (SMILES) = CNC(=O)c1cc(Oc2ccc(NC(=O)Nc3ccc(Cl)c(C(F)(F)F)c3)cc2)ccn1; value = 103%
Structure (SMILES) = Oc1ccc(-c2nc(-c3ccncc3)c(-c3ccc(F)cc3)[nH]2)cc1; value = 91.4%
Structure (SMILES) = OCC(O)CCON=C1C(c2c(O)[nH]c3ccccc23)=Nc2ccccc21 (centres unmarked); value = 106%
Structure (SMILES) = CN(C)c1ccc(C=C2C(=O)Nc3ccccc32)cc1; value = 101%
Structure (SMILES) = Cc1ccc(NC(=O)c2ccc(CN3CCN(C)CC3)cc2)cc1Nc1nc(-c2cccnc2)cs1; value = 101%
Structure (SMILES) = Cn1sc(=O)n(Cc2ccccc2)c1=O; value = 101%
Structure (SMILES) = Nc1ncnc2n[nH]c(Nc3ccc(F)cc3)c12; value = 96.8%
Structure (SMILES) = O=C(CCCc1ccc(-c2ccccc2F)cc1)Nc1ccc(O)cc1; value = 104%
Structure (SMILES) = NCCNc1ncc(C(N)=O)c(Nc2cccc(C(F)(F)F)c2)n1; value = 86.7%
Structure (SMILES) = N#CC(C#N)=C(N)/C(C#N)=C/c1ccc(O)cc1; value = 96.8%

Study 4 — cell line: mouse MPNST tumor cells; method: high-content immunofluorescence imaging; measured: nuclear SOX9; concentration: 10 µM; time: 12 h; notes: mean of 2 replicates; relative to: DMSO control; direction: higher = more nuclear SOX9; measurement: nuclear SOX9 intensity
SMILES = COc1cc2c(cc1OC)CC(=O)N(CCCN(C)C[C@H]1Cc3cc(OC)c(OC)cc31)CC2; value = 98.1 % of DMSO
SMILES = C/C(=N\NC(=O)C1C(=O)NCC1c1ccccc1)c1cccc(Br)c1 (centres unmarked); value = 88.6 % of DMSO
SMILES = O=C1CN2Cc3c(ccc(Cl)c3Cl)N=C2N1; value = 94.2 % of DMSO
SMILES = CN(C)CCC[C@@]1(c2ccc(F)cc2)OCc2cc(C#N)ccc21; value = 110 % of DMSO and 129 % of DMSO
SMILES = N#CC(c1ccccc1)(c1ccccc1)c1ccccc1Cl; value = 104 % of DMSO

Excerpt of the above (study 1):
target = STK11 (Homo sapiens, UniProt Q15831); value = 56%
target = BMPR2 (Homo sapiens, UniProt Q13873); value = 100%
target = SRC (Homo sapiens, UniProt P12931); value = 100%
target = PIK3CA (Homo sapiens, UniProt P42336, E542K); value = 86%
